Results from different studies.
Parts stem from different laboratories: compare values within a part only. Changes are numbered by the printed parent chain.
Chain of UniProt Q5XXA6 (whole entry, unmodified, looked up): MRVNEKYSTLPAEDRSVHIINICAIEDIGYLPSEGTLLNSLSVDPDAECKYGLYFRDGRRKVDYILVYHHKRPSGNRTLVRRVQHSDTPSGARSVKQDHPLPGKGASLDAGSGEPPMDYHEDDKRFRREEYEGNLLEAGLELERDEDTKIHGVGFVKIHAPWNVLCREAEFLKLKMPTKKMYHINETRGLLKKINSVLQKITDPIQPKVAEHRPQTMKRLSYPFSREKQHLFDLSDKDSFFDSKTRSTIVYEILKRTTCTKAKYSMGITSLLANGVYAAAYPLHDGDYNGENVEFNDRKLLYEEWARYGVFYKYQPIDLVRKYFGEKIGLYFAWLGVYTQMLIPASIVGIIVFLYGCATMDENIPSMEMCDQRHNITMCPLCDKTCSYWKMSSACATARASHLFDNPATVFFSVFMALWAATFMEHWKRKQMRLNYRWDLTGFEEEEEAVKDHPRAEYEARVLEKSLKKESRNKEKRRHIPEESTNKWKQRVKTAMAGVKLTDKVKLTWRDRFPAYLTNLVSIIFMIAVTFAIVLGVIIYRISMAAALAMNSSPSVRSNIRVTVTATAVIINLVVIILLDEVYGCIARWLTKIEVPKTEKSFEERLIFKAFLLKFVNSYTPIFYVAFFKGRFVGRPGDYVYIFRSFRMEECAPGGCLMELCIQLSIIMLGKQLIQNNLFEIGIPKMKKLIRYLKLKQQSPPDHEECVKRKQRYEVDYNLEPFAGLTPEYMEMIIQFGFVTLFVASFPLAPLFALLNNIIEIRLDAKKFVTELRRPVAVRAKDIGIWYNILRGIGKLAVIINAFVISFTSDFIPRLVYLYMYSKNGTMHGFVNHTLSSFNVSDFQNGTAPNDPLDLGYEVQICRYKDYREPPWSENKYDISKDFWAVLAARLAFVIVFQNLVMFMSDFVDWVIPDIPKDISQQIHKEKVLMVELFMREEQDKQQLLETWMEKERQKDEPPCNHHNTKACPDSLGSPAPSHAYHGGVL

Set 1
Target: Calcium/calmodulin-dependent protein kinase type II subunit alpha (CAMK2A, Homo sapiens, UniProt Q9UQM7)
Chain of UniProt Q9UQM7 (whole entry, looked up): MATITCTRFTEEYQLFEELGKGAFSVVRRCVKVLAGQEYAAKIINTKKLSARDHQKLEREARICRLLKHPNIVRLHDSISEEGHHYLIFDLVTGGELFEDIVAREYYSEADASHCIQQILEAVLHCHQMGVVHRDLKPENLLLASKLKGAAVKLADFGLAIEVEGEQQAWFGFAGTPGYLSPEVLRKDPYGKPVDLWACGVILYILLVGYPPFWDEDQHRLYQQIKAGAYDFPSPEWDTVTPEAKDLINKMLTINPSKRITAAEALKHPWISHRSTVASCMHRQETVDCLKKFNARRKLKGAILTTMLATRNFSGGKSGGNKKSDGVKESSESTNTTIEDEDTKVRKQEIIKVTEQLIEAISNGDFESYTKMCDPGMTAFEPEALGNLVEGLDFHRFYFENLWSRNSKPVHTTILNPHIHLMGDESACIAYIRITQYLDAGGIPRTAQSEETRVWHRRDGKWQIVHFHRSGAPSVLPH
Read-out: enzyme activity
Action: inhibitor
Concentration: 10 µM
Structure (SMILES)	inhibition
CSCCNc1nc(SCCC(F)(F)F)nc2c1ncn2[C@@H]1O[C@H](COP(=O)(O)OP(=O)(O)C(Cl)(Cl)P(=O)(O)O)[C@@H](O)[C@H]1O	-6%
CC1(C)C[C@@H]1C(=O)N/C(=C\CCCCSC[C@H](N)C(=O)O)C(=O)O	-5%
CC[C@@]1(O)C(=O)OCc2c1cc1n(c2=O)Cc2cc3c(CN(C)C)c(O)ccc3nc2-1	2%
COc1ccc(C(=O)/C=C/c2ccccc2)cc1	-26%
CCCCCCCC/C=C\CCCCCCCC(=O)NCCO	-39%
CN1CCN(CC(=O)N2c3ccccc3C(=O)Nc3cccnc32)CC1	-11%
C[C@H](CCC(=O)NCC(=O)O)[C@H]1CC[C@H]2[C@@H]3[C@@H](O)C[C@@H]4C[C@H](O)CC[C@]4(C)[C@H]3CC[C@]12C	38%
O=C(CCc1ccc(O)cc1)c1c(O)cc(O[C@@H]2O[C@H](CO)[C@@H](O)[C@H](O)[C@H]2O)cc1O	21%

Set 2
Matrix: 1,9-decadiene/PBS
pH: 7.4
SMILES	logD
CC(C)C[C@@H]1NC(=O)[C@H](CCC(=O)N2CCCC2)NC(=O)[C@@H](C(C)C)NC(=O)[C@H](C)NC(=O)[C@H](CC(C)C)NC(=O)[C@@H](CC(C)C)NC(=O)[C@H](CC(C)C)NC1=O	-0.865
CC(C)C[C@@H]1NC(=O)[C@H](C)NC(=O)[C@H](Cc2cscn2)NC(=O)[C@H](C)NC(=O)[C@@H](CCC(=O)N2CCCC2)NC(=O)[C@H](CC(C)C)NC(=O)[C@@H](CC(C)C)NC1=O	-2.86
CC(C)C[C@@H]1NC(=O)[C@H](C)NC(=O)[C@@H](CC(C)C)NC(=O)[C@H](C)NC(=O)[C@H](C(C)C)NC(=O)[C@H](CC(C)C)NC(=O)[C@@H](CC(C)C)NC1=O	-0.137
CC(C)C[C@@H]1NC(=O)[C@H](CC(C)C)NC(=O)[C@@H](CC(C)C)NC(=O)[C@@H](C)NC(=O)[C@H](C(C)C)NC(=O)[C@H](Cc2cscn2)NC(=O)[C@H](C)NC1=O	-1.61
CC(C)C[C@@H]1NC(=O)[C@H](C(C)C)NC(=O)[C@@H](CC(C)C)NC(=O)[C@@H](CC(C)C)NC(=O)[C@@H](CCC(=O)N2CCCC2)NC(=O)[C@H](CC(C)C)NC(=O)[C@@H](CC(C)C)NC1=O	0.731
CC(C)C[C@@H]1NC(=O)[C@@H](C)NC(=O)[C@@H](CC(C)C)NC(=O)[C@@H](CC(C)C)NC(=O)[C@H](C)NC(=O)[C@H](CC(C)C)NC(=O)[C@@H](CC(C)C)NC1=O	0.169
CC(C)C[C@@H]1NC(=O)[C@H](C)NC(=O)[C@H](CCC(=O)N2CCCC2)NC(=O)[C@H](CC(C)C)NC(=O)[C@@H](Cc2cscn2)NC(=O)[C@H](CC(C)C)NC(=O)[C@@H](CC(C)C)NC1=O	-2.04
CC(C)C[C@@H]1NC(=O)[C@H](C)NC(=O)[C@@H](Cc2cscn2)NC(=O)[C@@H](CC(C)C)NC(=O)[C@H](C)NC(=O)[C@H](CC(C)C)NC(=O)[C@H](CC(C)C)NC1=O	-1.09

Set 3
Target: Dual specificity tyrosine-phosphorylation-regulated kinase 1B (DYRK1B, Homo sapiens, UniProt Q9Y463)
Read-out: enzyme activity
Action: inhibitor
Technique: radiometric
Concentration: 0.5 µM
Compound	remaining activity [%]
Cn1cc(/C=C2\C(=O)Nc3ccc(S(N)(=O)=O)cc32)c2ccccc21	104
COc1ccc(Cl)cc1NC(=O)Nc1cc(C)nc2ccccc12	99.7
O=C1NC(=O)/C(=C/c2ccc3nccnc3c2)S1	31.3
CCC(=O)Nc1ccc2ncnc(Nc3cccc(Br)c3)c2c1	95.2
CN(C)CCCn1cc(C2=C(c3c[nH]c4ccccc34)C(=O)NC2=O)c2ccccc21	76
CC(C)c1nn(-c2c(Cl)cccc2Cl)c2nc(Cc3ccc(OCCO)cc3)[nH]c(=O)c12	99.9

Set 4
Target: CCNB3, cyclin fold, Cln2 fusion (human)
Technique: yeast growth competition, sequencing
Matrix: yeast
Notes: strong parent motif
Reference: not given
Direction: higher = stronger binding
Starting sequence: viral docking peptide; YKVKRRLVFGADD
Variant	normalised enrichment score
YKVKRMLVFGADD [R6M]	0.807
YKGKRRLVFGADD [V3G]	-0.0566
YKVLRRLVFGADD [K4L]	0.409
YKVIRRLVFGADD [K4I]	0.48
YKVKRRQVFGADD [L7Q]	-0.115
YKVPRRLVFGADD [K4P]	0.517
YKVKRRLVFGAWD [D12W]	0.705
YKVKRKLVFGADD [R6K]	2.46
YKWKRRLVFGADD [V3W]	0.202
YAVKRRLVFGADD [K2A]	1.51
YKVKRRLVFGATD [D12T]	1.97
YKVKRRLVFGDDD [A11D]	2.65
YKVKRRLVFGAVD [D12V]	1.94
YKVKRRLVFGEDD [A11E]	2.77
YKVKRRLVFPADD [G10P]	2.36
YKVKRRLVAGADD [F9A]	-0.386
YKVKRRLVTGADD [F9T]	0.214
YWVKRRLVFGADD [K2W]	1.24
YRVKRRLVFGADD [K2R]	2.3
YKVKRRLVDGADD [F9D]	0.0678
YKSKRRLVFGADD [V3S]	0.141
YIVKRRLVFGADD [K2I]	1.45
YKVKRYLVFGADD [R6Y]	0.199
YKVKRRLTFGADD [V8T]	1.69

Further values, each from its own experiment
SMILES	tested on	assay	system	conditions	how to read	quantity	result
CC(C)n1cnc(-c2ccc(F)cc2)c1-c1ncc(C(=O)Nc2ccc(N3CCN(C)CC3)cc2)[nH]1	–	–	IPF patients	60 mg once daily, adverse event	–	abdominal distension incidence	0%
C=CCc1ccc(O)c(-c2cc(CC=C)ccc2O)c1	Anoctamin-1 (ANO1, Homo sapiens, UniProt Q5XXA6, del476-501)	chloride current, inhibitor, whole-cell voltage clamp	–	wild type at 100 mV, with: 3 µM honokiol	reference: with over without honokiol	potency fold increase	1.16

Some of these lines once more (set 3):
Compound	remaining activity [%]
Cn1cc(/C=C2\C(=O)Nc3ccc(S(N)(=O)=O)cc32)c2ccccc21	104
COc1ccc(Cl)cc1NC(=O)Nc1cc(C)nc2ccccc12	99.7
O=C1NC(=O)/C(=C/c2ccc3nccnc3c2)S1	31.3
CCC(=O)Nc1ccc2ncnc(Nc3cccc(Br)c3)c2c1	95.2
CN(C)CCCn1cc(C2=C(c3c[nH]c4ccccc34)C(=O)NC2=O)c2ccccc21	76
CC(C)c1nn(-c2c(Cl)cccc2Cl)c2nc(Cc3ccc(OCCO)cc3)[nH]c(=O)c12	99.9
